Measured values of several laboratories.
Several values in a cell are separate wells, animals, samples, runs or records. ± gives the spread as reported.
PARP1: Poly [ADP-ribose] polymerase 1 (PARP1, Homo sapiens, UniProt P09874)
Sequence of UniProt P09874 (whole entry, looked up): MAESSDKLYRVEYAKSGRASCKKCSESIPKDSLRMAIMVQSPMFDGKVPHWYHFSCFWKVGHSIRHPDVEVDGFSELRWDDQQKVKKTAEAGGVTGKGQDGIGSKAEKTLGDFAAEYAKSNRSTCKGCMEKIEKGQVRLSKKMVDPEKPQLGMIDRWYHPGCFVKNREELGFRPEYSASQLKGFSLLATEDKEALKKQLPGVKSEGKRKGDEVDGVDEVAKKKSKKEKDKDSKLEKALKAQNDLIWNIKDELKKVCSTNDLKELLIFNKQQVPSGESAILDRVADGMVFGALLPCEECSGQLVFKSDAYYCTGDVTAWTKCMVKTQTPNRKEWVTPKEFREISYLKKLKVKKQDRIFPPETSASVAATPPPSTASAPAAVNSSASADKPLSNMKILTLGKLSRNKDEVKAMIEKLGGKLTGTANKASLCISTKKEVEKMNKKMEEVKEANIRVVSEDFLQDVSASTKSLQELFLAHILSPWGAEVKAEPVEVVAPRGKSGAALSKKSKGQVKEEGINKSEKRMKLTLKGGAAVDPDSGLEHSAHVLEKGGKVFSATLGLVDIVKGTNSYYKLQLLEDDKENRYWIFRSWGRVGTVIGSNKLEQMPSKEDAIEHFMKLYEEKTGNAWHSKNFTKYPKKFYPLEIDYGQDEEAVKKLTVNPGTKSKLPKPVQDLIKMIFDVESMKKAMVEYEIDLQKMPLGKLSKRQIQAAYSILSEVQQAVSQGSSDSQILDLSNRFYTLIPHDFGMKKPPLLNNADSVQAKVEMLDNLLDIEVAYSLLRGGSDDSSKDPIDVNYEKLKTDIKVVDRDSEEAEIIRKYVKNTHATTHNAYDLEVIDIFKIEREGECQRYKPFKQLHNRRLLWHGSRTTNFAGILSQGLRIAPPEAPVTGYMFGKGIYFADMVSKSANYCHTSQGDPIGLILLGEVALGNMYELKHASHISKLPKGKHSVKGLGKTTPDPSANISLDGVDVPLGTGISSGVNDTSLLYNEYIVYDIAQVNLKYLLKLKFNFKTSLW
Sequence of UniProt Q6IQ20 (whole entry, looked up): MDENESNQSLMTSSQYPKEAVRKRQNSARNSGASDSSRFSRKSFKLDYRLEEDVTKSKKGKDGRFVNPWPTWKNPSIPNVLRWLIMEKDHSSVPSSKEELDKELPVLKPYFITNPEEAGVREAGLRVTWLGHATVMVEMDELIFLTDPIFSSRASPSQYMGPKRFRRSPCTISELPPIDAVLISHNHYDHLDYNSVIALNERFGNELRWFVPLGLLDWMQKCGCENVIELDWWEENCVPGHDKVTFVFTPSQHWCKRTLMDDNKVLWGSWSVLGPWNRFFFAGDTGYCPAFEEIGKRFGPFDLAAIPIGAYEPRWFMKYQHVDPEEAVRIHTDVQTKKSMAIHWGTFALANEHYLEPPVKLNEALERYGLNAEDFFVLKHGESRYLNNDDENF
Sequence of UniProt P49841 (whole entry, looked up): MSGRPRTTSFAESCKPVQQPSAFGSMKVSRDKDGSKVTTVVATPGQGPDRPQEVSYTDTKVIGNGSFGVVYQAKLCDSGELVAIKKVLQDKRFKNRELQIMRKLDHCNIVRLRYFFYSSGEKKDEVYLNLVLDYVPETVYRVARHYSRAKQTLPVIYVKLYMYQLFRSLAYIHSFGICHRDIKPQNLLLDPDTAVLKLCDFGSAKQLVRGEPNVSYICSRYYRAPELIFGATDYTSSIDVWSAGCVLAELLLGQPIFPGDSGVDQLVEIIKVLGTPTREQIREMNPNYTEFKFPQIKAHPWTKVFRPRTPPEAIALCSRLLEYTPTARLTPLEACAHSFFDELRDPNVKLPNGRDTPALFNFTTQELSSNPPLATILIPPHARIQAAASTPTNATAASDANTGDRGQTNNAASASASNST
Sequence of UniProt P27694 (whole entry, looked up): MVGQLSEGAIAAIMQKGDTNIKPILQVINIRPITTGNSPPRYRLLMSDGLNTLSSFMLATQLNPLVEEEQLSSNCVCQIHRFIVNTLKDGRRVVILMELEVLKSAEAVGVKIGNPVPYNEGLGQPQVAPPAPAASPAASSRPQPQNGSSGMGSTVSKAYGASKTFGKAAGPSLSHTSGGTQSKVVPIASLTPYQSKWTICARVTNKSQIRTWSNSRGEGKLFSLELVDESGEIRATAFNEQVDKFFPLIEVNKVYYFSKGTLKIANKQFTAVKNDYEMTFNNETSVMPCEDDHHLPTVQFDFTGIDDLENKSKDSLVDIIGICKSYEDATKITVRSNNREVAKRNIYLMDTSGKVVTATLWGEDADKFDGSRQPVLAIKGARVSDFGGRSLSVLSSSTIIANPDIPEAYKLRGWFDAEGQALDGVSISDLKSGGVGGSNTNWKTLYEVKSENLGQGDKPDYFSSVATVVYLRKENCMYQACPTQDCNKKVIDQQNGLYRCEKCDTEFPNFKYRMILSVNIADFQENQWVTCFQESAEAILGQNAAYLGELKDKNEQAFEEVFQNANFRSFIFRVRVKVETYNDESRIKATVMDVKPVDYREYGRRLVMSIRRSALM
Sequence of UniProt P22071 (whole entry, looked up): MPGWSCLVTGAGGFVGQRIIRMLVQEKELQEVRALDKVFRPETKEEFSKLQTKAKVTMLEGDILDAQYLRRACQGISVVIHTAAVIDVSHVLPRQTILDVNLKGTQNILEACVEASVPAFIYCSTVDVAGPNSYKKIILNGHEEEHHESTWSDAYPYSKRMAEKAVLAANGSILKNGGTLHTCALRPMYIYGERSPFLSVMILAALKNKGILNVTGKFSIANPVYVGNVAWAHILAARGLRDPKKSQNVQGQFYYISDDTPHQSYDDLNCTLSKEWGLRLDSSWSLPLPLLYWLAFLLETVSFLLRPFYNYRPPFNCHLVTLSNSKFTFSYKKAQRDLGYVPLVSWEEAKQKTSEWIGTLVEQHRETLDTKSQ
Sequence of UniProt P61073 (whole entry, looked up): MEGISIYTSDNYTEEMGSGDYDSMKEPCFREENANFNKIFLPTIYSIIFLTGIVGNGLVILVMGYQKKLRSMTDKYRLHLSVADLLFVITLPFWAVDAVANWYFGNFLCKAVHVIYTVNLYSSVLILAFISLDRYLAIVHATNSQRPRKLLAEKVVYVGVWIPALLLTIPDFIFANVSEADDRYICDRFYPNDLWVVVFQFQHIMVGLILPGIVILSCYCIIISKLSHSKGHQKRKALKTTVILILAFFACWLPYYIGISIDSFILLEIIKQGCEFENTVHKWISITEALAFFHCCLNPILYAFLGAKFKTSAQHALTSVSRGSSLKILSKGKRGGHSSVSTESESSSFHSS
Sequence of UniProt Q9BY41 (whole entry, looked up): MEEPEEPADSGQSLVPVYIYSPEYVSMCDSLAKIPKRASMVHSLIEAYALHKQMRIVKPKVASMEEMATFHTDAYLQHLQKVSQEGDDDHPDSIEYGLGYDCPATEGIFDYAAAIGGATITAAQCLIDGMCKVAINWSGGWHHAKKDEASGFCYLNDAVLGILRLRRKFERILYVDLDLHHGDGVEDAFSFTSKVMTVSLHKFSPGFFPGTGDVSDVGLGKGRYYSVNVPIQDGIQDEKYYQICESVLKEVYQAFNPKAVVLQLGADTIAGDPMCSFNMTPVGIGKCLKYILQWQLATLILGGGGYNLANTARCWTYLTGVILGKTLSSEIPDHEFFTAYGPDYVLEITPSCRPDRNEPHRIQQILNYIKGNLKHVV
Sequence of UniProt P07195 (whole entry, looked up): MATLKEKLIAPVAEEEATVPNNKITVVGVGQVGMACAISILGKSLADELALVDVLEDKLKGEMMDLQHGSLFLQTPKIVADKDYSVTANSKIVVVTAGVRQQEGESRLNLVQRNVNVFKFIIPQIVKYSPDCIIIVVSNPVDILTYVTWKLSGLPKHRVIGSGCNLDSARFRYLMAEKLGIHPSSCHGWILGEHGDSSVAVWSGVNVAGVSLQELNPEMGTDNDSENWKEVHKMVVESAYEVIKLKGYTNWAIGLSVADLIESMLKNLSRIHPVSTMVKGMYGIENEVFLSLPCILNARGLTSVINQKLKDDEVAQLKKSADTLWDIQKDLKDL
Sequence of UniProt P00488 (whole entry, looked up): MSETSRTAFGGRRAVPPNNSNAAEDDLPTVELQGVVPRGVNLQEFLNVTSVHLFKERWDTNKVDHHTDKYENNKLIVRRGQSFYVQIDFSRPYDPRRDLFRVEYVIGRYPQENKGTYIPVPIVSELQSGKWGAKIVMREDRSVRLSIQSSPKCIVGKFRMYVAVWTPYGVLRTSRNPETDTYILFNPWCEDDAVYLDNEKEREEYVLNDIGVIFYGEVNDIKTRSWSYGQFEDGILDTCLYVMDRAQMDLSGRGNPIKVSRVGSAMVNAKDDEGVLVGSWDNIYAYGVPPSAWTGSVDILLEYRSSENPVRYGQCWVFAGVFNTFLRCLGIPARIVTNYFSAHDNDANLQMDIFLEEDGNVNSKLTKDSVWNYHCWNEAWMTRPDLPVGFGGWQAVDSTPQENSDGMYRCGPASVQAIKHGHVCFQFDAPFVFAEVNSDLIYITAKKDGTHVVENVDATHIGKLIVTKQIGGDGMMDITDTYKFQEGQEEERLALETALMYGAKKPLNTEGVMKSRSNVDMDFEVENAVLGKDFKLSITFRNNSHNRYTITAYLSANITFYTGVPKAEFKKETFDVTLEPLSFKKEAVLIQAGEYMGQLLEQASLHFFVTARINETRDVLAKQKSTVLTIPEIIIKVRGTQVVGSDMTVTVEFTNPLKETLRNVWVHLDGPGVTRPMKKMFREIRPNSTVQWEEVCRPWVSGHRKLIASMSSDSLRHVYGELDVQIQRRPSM
Sequence of UniProt P28074 (whole entry, looked up): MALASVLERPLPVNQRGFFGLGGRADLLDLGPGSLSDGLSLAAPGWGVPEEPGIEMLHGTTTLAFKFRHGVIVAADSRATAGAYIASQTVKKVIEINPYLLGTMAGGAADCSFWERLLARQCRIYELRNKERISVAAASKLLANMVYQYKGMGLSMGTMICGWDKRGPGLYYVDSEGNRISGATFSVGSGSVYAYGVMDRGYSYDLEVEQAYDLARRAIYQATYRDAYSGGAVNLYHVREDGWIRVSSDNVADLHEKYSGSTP

With `COC(=O)C(Cc1ccc(CCCC(=O)NCCC(=O)Nc2ccc3nc(C)sc3c2)cc1)C(=O)O` (stereo not shown) the IC50 was 26.9 ± 3 µM (L-lactate dehydrogenase B chain (LDHB, Homo sapiens, UniProt P07195); inhibitor, NADH fluorescence; NADH competition, with: 1440 µM pyruvate, 40 µM NADH).
For `O=C1NC(=O)C(c2ccccc2)(c2ccccc2)N1`, the IC50 was 13 µM (Sodium channel protein type 8 subunit alpha (SCN8A, Homo sapiens, UniProt Q9UQD0); ion current, inhibitor, automated patch clamp; held at V0.5 inactivation for 10 s).
For `Cn1c(=O)c(=O)n(C)c2cc(S(=O)(=O)NNC(=O)c3ccccc3)ccc21`, the IC50 was 9.5e-05 µM (Dipeptidyl peptidase 4 (DPP4, Homo sapiens, UniProt P27487); enzyme activity, inhibitor, fluorescence).
`O=C(O)C(Cc1ccccc1)[C@@H]1CCN[C@H]1C(=O)O` (relative stereo) gave an IC50 of over 100 µM (AMPA receptor, rat; binding; cortical synaptosomes; with: [3H]-AMPA).
`CC(=O)n1c(=O)[nH]c2ccccc21` has an IC50 of over 200 µM (mbtI (Mycobacterium tuberculosis, UniProt P9WFX1); enzyme activity, inhibitor, continuous fluorescence; with: chorismate).
The IC50 of `C#Cc1ccc2c(-c3ccccc3)c(C)c(=O)oc2c1` is reported as 2.93 µM (Cytochrome P450 1A1 (CYP1A1, Homo sapiens, UniProt P04798); enzyme activity, inhibitor, fluorescence; 6 min, pH 7.6).
With `NS(=O)(=O)c1ccc(NC(=O)CSc2nc3ccccc3c(=O)n2-c2ccccc2)cc1` the IC50 was 0.352 µM (PARP1; enzyme activity, inhibitor, absorbance).
The IC50 of `CS(=O)(=O)OC[C@H]1COc2cccc(C(N)=O)c2O1` is reported as 1.2 ± 0.21 µM (PARP1).
`CN1CCN(CCC(=O)Nc2ccc3c(c2)Sc2cccc(-c4cc(=O)cc(N5CCOCC5)o4)c2S3)CC1` has an IC50 of 9.1 µM (DNA-dependent protein kinase catalytic subunit (PRKDC, Homo sapiens, UniProt P78527); enzyme activity, inhibitor).
For `O=c1[nH]c(=O)c2cc(S(=O)(=O)Nc3ccc(-c4ccncc4)cc3)ccc2[nH]1`, the IC50 was 33.7 µM and ~34 µM (N-acyl-phosphatidylethanolamine-hydrolyzing phospholipase D (Homo sapiens, UniProt Q6IQ20); enzyme activity, inhibitor).
`O=C(/C=C/c1ccc(O)cc1)CC(=O)/C=C/c1ccc(O)cc1` has an IC50 of under 100 µM (Hsd3b1 (Rattus norvegicus, UniProt P22071); enzyme activity, inhibitor; rat testicular microsomes; lower bound from 100 µM screen, with: pregnenolone).
The IC50 of `CN1CCN(C2=Nc3ccccc3Oc3ccc(Cl)cc32)CC1` is reported as 12.9 ± 8 µM (Multidrug resistance-associated protein 1 (ABCC1, Homo sapiens, UniProt P33527); efflux, inhibitor; SupT1-Vin overexpressing ABCC1; with: DiOC2(3) 100 nM).
`O=C1C=C2CC3(O)COc4c(ccc(O)c4O)C3=C2C=C1O` (stereo not shown) has an IC50 of 3.13 ± 0.36 µM (Cell division cycle 7-related protein kinase, with DBF4 (CDC7, Homo sapiens, UniProt O00311); enzyme activity, inhibitor, ADP-Glo luminescence; with: ATP 12.5 µM).
With `CCOc1ccc2cc(C3CC(c4ccc(Br)cc4)=NN3C(=O)CCC(=O)O)c(Cl)nc2c1` (stereo not shown) the IC50 was 12.9 µM (Replication protein A 70 kDa DNA-binding subunit (RPA1, Homo sapiens, UniProt P27694); protein-nucleic acid interaction, inhibitor, mobility shift).
The IC50 of `COc1ccc(-c2cc(=O)c3c(OC)c([C@@H]4O[C@H](C(=O)NCCC(F)(F)F)[C@@H](O)[C@H](O)[C@H]4O)c(OC)cc3o2)cc1OC` is reported as < 20 µM and 17.2 µM (Glycogen synthase kinase-3 beta (GSK3B, Homo sapiens, UniProt P49841); enzyme activity, inhibitor, ADP detection).
The IC50 of `CC(=O)CSc1n(C)c(C)c(C)[n+]1C` is reported as about 0.25 µM (Coagulation factor XIII A chain (F13A1, Homo sapiens, UniProt P00488); isopeptidase activity, inhibitor; form not specified, with: A101 substrate).
With `Oc1cccnc1O` the IC50 was over 10 µM (Histone deacetylase 8 (HDAC8, Homo sapiens, UniProt Q9BY41); enzyme activity, inhibitor, SAMDI mass spectrometry).
`COc1cc2nc(NCc3ccc(CNCCCNC4CCCCCC4)cc3)nc(NC3CCNCC3)c2cc1OC` gave an IC50 of 0.0784 µM (C-X-C chemokine receptor type 4 (CXCR4, Homo sapiens, UniProt P61073); ligand displacement, radioligand; cell membranes).
`Cn1nc2c3c(cccc31)C(=O)c1ccccc1-2` gave an IC50 of over 30 µM (Proteasome Macropain subunit MB1 (PSMB5, Homo sapiens, UniProt P28074); enzyme activity; with: Suc-LLVY-AMC substrate, ATP).

Excerpt of the above:
`CC(=O)n1c(=O)[nH]c2ccccc21` has an IC50 of over 200 µM (mbtI (Mycobacterium tuberculosis, UniProt P9WFX1); enzyme activity, inhibitor, continuous fluorescence; with: chorismate).
